Measured values gathered from unrelated publications.
Numbers after ± are the reported error.
Ugcg: Ceramide glucosyltransferase (Ugcg, Mus musculus, UniProt O88693)
DRD3: D(3) dopamine receptor (DRD3, Homo sapiens, UniProt P35462)
EGFR: Epidermal growth factor receptor (EGFR, Homo sapiens, UniProt P00533)
RAD52: DNA repair protein RAD52 homolog (RAD52, Homo sapiens, UniProt P43351)

Compound | target | assay | test system | setting | IC50
CCN(CC)CC(=O)Nc1cccc(-n2cc(-c3ccc4ccc(-c5cn(-c6cccc(NC(=O)CN(CC)CC)c6)nn5)cc4c3)nn2)c1 | MET (Homo sapiens, UniProt P08581) | enzyme activity, inhibitor | – | – | > 10 µM
OC[C@H]1N[C@H](CCCCCOCC23CC4CC(CC(C4)C2)C3)[C@H](O)[C@@H](O)[C@@H]1O | Ugcg | enzyme activity, inhibitor, fluorescence | – | – | 50 µM
OC[C@H]1c2[nH]cnc2[C@H](O)[C@@H](O)[C@@H]1O | GAA (Homo sapiens, UniProt P10253) | – | – | pH 4.8 | > 100 µM
CCOc1cc(CN2CC3(CC(N4CCC(C(=O)O)CC4)=NO3)C2)cc(OCC)c1-c1ccc(F)cc1 | SSTR5 (Homo sapiens, UniProt P35346, W190A) | cAMP level, agonist, GloSensor | AD293 | W190A mutant, together with: CST17 EC80 and forskolin | 1.95 µM
CCCCCN1C[C@H](O)[C@@H](O)[C@H](O)[C@@H]1CO | Ugcg | enzyme activity, inhibitor, fluorescence | – | – | 15 µM
Cc1ccc(NS(=O)(=O)c2c(C)[nH]c(C)c2C(=O)N2CCCC2)cc1F | DRD3 | β-arrestin recruitment, antagonist | – | – | 23 µM
CC(C)=CCC1C(=C2CC(O)C(C)(C)O2)C(=O)C23C(=C(C)C)OC(C)(C)C2CCC13C (stereo not shown) | Beta-secretase 1 (Mus musculus, UniProt P56818) | enzyme activity in cells, inhibitor | – | – | 0.434 µM
COc1ccc(Oc2ccc(S(=O)(=O)Nc3ccc4c(c3)N(C)C(=O)C4)cc2)cc1 | PLA2G4A (Homo sapiens, UniProt P47712) | enzyme activity, inhibitor, fluorescence | – | – | 3.22 µM
OC[C@@H]1[C@@H](O)[C@H](O)[C@@H](O)CN1CCCCCOCc1ccc(-c2ccccc2)cc1C(F)(F)F | Ugcg | enzyme activity, inhibitor, fluorescence | – | – | 0.025 µM
CN1CCN(C(=O)c2ccc(-c3cc4nccc(-c5ccc6cnccc6c5)c4o3)cc2)CC1 | IKBKE (Homo sapiens, UniProt Q14164) | enzyme activity, inhibitor | – | – | 0.22 µM
OC[C@H]1N[C@H](CCCCCCOCC23CC4CC(CC(C4)C2)C3)[C@H](O)[C@@H](O)[C@@H]1O | Ugcg | enzyme activity, inhibitor, fluorescence | – | – | 50 µM
COc1ccc(OCc2ccc([N+](=O)[O-])cc2)cc1-c1c[nH]c2ncc(-c3cncc(C(=O)N(C)C)c3)cc12 | ABL1 (Homo sapiens, UniProt P00519) | kinase activity, inhibitor, HTRF | – | 1 h preincubation, together with: ATP 20 µM | 0.0789 ± 0.0222 µM
CCn1nc(Cl)c2c1-c1cnc(N)c(c1)O[C@H](C)c1cc(F)ccc1-c1nn(C)cc1C2 | IRAK1 (Homo sapiens, UniProt P51617) | enzyme activity, inhibitor, radiometric | – | – | 1.02 µM
CCCCCCCCOCCCCCN1C[C@H](O)[C@@H](O)[C@H](O)[C@H]1CO | Ugcg | enzyme activity, inhibitor, fluorescence | – | – | 0.2 µM
Cc1ccc(N=C2CC(=O)c3sc(C)nc3C2=O)cc1 | PRMT3 (Homo sapiens, UniProt O60678) | enzyme activity, inhibitor | – | – | 1.8 µM
Cc1cc(C)nc(NC(=S)N2CCN(c3ccc(C(F)(F)F)cn3)CC2)c1 | GPD1 (Homo sapiens, UniProt P21695) | enzyme activity, inhibitor | – | – | > 100 µM
N#C[C@@H]1CC(F)(F)CN1C(=O)CNC(=O)c1ccnc2ccc(OCCCN3CCN(C(=O)CN4CCN(CC(N)=O)CCN(CC(N)=O)CCN(CC(N)=O)CC4)CC3)cc12 | FAP (Homo sapiens, UniProt Q12884) | enzyme activity, inhibitor, fluorescence | – | – | 0.00681 µM

Compound | target | assay | test system | setting | IC50
Cc1nn(-c2cccc(N)c2)c(=O)c2cnc(Nc3ccc(N4CCNCC4)cc3)nc12 | PAK1 (Homo sapiens, UniProt Q13153) | enzyme activity, inhibitor | – | – | 2.13 µM
CSc1ccc(NC(=O)c2cnn(-c3ccc([N+](=O)[O-])cc3)c2C(F)(F)F)cc1 | PTGS2 (Homo sapiens, UniProt P35354) | enzyme activity, inhibitor | – | – | 8.98 µM
CCCCCCN1C[C@H](O)[C@@H](O)[C@H](O)[C@@H]1CO | Ugcg | enzyme activity, inhibitor, fluorescence | – | – | 40 µM
C=CC(=O)Nc1cc(Nc2ncnc(Nc3ccccc3S(N)(=O)=O)n2)c(OC)cc1N(C)CCN(C)C | EGFR | EGFR phosphorylation, inhibitor | A-431 | – | 0.046 µM
Cc1c(Cl)cccc1Nc1ccccc1C(=O)O | ALDH1B1 (Homo sapiens, UniProt P30837) | enzyme activity, inhibitor | – | – | 64.3 µM
Cc1ccc(C(=O)c2oc3ccc(Cl)cc3c2NC(=O)CN2CCN(C)CC2)cc1 | RAD52 | ssDNA annealing, fluorescence quenching | – | – | 6 µM
COc1ccc(Nc2cc(NC3CC3)n3ncc(C#N)c3n2)cc1 | CAMK2A (Homo sapiens, UniProt Q9UQM7) | inhibitor | – | – | > 10 µM
OC[C@H]1[C@@H](O)[C@H](O)[C@@H](O)CN1CCCCCOCc1ccc(-c2ccccc2)cc1F | Ugcg | enzyme activity, inhibitor, fluorescence | – | – | 0.005 µM
CCCN(CCC)CCCNC(=S)Nc1ccc2nc(N3CCN(C)CC3)cc(C)c2c1 | RAD52 | D-loop formation | – | together with: RAD52 450 nM | 8.9 ± 1.6 µM
Cc1[nH]c(C)c(S(=O)(=O)Nc2ccc(F)cc2)c1C(=O)N1CCCC1 | DRD3 | β-arrestin recruitment, antagonist, PathHunter | – | together with: dopamine EC80 | > 100 µM
CNCc1ccc2c(c1)N(C(=O)OCCC(F)(F)F)[C@H](CNC(=N)N)[C@H]2NC(=O)C(=O)Nc1ccc(Cl)c(F)c1 | env (Human immunodeficiency virus 1, UniProt Q2N0S5) | HIV-1 infection | Cf2Th-CD4/CCR5 cells | 48 h | 60.3 µM
CCN(CC)CCCN(Cc1cc2cc3c(cc2[nH]c1=O)OCO3)C(=S)NCCCN(C)C | RAD52 | D-loop formation | – | together with: RAD52 450 nM | 13.6 ± 0.64 µM
CCCCCCCCCOCCCCCN1C[C@H](O)[C@@H](O)[C@H](O)[C@H]1CO | Ugcg | enzyme activity, inhibitor, fluorescence | – | – | 0.1 µM
CCCCN(CC)CCCNC(=S)Nc1ccc2nc(N3CCN(C)CC3)cc(C)c2c1 | RAD52 | D-loop formation | – | together with: RAD52 450 nM | 14.8 ± 2.47 µM
O=C(Oc1ccc(CSc2ncccn2)cc1)c1ccc([N+](=O)[O-])cc1 | Apelin receptor (APLNR, Homo sapiens, UniProt P35414) | β-arrestin recruitment, antagonist | – | – | > 100 µM
Fc1ccc(Nc2nc(NC3CCCCC3)c3cc(C(F)(F)F)ccc3n2)cc1F | ADRB2 (Homo sapiens, UniProt P07550, G162A) | β-arrestin2 recruitment, antagonist, BRET | HEK293 | mutant G162A, together with: isoprenaline 1 µM | 0.158 µM
COCC1CN(C2CCN(c3cc(OC)c(Nc4ncc(Br)c(Nc5ccc6c(c5P(C)(C)=O)OCCO6)n4)cc3C)CC2)C1 | EGFR | enzyme activity, inhibitor, TR-FRET | – | – | 0.0091 µM

For quick reference, copied from above:
Compound | target | assay | test system | setting | IC50
CCN(CC)CCCN(Cc1cc2cc3c(cc2[nH]c1=O)OCO3)C(=S)NCCCN(C)C | RAD52 | D-loop formation | – | together with: RAD52 450 nM | 13.6 ± 0.64 µM
CSc1ccc(NC(=O)c2cnn(-c3ccc([N+](=O)[O-])cc3)c2C(F)(F)F)cc1 | PTGS2 (Homo sapiens, UniProt P35354) | enzyme activity, inhibitor | – | – | 8.98 µM
OC[C@@H]1[C@@H](O)[C@H](O)[C@@H](O)CN1CCCCCOCc1ccc(-c2ccccc2)cc1C(F)(F)F | Ugcg | enzyme activity, inhibitor, fluorescence | – | – | 0.025 µM
